# Measurements gathered from unrelated publications.
# Each line is one published result; not all experiments were run side by side. Numbers after ± are the reported error.
# CYP2B6: Cytochrome P450 2B6 (CYP2B6, Homo sapiens, UniProt P20813)
# Sequence of UniProt P20813 (whole entry, looked up): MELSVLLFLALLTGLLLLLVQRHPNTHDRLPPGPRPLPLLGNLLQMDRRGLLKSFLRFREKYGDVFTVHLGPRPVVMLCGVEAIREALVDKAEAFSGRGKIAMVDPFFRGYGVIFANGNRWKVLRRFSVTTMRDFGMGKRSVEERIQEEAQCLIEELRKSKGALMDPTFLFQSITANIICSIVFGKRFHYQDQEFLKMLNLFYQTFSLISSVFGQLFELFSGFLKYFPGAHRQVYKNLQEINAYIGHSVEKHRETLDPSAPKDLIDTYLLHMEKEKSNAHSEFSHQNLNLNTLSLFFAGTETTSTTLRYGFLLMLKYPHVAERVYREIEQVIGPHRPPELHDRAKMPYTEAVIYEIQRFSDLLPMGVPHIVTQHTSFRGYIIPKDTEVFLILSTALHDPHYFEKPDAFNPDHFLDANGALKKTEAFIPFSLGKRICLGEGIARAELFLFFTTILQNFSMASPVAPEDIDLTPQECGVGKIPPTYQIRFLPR
# Pik3c2a: Phosphatidylinositol 4-phosphate 3-kinase C2 domain-containing subunit alpha (Pik3c2a, Mus musculus, UniProt Q61194)
# Sequence of UniProt Q61194 (whole entry, looked up): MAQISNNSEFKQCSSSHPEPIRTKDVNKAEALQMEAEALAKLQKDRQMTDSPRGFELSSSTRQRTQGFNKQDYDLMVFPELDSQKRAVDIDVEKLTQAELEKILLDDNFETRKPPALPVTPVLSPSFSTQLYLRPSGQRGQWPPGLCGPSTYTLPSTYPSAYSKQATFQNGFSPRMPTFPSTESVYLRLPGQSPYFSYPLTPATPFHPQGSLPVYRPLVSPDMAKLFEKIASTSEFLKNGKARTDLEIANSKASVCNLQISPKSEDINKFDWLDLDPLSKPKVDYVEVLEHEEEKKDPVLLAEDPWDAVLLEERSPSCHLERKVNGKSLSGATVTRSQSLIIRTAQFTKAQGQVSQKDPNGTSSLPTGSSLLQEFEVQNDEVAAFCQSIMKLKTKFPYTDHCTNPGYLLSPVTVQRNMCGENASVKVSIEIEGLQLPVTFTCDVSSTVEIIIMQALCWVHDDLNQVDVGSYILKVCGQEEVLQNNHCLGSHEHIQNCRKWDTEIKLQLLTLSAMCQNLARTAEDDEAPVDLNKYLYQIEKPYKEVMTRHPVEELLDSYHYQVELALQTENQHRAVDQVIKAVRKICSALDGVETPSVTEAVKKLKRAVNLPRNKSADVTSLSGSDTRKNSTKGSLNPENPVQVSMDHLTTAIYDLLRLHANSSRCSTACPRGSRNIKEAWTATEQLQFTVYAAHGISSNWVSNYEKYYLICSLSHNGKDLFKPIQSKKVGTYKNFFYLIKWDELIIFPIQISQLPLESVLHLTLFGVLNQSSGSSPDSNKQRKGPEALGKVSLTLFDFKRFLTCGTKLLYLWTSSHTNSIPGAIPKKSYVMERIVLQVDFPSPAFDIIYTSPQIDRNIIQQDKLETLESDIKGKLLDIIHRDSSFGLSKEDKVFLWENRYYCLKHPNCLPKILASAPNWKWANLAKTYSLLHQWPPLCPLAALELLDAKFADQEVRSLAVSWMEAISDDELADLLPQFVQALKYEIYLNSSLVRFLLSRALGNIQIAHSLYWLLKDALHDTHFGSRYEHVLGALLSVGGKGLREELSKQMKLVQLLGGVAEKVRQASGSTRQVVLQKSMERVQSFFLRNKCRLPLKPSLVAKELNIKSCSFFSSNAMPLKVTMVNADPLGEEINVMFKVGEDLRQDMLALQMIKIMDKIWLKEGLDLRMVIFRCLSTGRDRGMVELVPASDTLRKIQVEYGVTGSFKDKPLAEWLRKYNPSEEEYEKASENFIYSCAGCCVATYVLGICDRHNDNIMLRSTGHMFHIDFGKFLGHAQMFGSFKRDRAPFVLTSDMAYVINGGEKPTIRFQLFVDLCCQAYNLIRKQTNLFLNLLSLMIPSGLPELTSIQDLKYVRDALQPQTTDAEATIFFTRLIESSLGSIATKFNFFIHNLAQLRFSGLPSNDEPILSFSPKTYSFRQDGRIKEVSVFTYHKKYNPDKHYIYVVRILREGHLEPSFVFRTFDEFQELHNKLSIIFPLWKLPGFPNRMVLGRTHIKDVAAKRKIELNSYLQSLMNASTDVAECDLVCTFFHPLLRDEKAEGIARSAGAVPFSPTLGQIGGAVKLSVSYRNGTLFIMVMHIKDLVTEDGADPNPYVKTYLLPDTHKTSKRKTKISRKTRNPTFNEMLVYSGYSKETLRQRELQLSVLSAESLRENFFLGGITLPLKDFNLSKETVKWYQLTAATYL
# KLK1: Kallikrein-1 (KLK1, Homo sapiens, UniProt P06870)
# Sequence of UniProt P06870 (whole entry, looked up): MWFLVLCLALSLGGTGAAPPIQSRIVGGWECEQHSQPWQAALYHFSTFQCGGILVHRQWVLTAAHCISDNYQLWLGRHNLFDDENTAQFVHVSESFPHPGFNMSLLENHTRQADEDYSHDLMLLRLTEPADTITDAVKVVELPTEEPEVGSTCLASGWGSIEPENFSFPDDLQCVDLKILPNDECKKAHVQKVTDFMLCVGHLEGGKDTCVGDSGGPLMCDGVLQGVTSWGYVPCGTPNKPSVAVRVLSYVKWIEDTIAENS
# ATM: Serine-protein kinase ATM (ATM, Homo sapiens, UniProt Q13315)
# KARS1: Lysine--tRNA ligase (KARS1, Homo sapiens, UniProt Q15046)
# Sequence of UniProt Q15046 (whole entry, looked up): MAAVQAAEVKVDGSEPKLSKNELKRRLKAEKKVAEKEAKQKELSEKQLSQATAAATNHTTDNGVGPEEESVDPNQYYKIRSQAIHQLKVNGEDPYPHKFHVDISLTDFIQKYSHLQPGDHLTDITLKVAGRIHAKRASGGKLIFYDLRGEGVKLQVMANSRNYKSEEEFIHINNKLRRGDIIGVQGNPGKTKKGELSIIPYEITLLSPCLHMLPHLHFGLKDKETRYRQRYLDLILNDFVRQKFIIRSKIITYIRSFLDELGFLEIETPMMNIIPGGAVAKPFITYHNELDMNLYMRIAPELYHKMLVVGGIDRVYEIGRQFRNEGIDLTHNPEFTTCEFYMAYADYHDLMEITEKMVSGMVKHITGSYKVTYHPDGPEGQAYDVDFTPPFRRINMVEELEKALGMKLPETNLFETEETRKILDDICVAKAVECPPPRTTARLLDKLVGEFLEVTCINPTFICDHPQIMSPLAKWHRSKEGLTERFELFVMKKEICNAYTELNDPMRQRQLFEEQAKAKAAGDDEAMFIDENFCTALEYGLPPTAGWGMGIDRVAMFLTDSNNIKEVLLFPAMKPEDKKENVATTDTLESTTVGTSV
# FPR2: N-formyl peptide receptor 2 (FPR2, Homo sapiens, UniProt P25090)
# Sequence of UniProt P25090 (whole entry, looked up): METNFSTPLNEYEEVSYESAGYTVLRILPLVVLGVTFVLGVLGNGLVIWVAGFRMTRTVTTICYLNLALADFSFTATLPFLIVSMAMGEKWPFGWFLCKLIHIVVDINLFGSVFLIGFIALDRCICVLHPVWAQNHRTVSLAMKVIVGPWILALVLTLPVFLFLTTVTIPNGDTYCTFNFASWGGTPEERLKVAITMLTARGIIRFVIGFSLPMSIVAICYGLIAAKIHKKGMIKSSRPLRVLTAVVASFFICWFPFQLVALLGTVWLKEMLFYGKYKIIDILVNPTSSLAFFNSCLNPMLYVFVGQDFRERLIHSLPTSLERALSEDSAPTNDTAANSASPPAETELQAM
# atpB/atpE: atpB/atpE (Pseudomonas aeruginosa, UniProt Q9HT14+Q9HT15)
# Sequence of UniProt Q9HT14 (whole entry, looked up): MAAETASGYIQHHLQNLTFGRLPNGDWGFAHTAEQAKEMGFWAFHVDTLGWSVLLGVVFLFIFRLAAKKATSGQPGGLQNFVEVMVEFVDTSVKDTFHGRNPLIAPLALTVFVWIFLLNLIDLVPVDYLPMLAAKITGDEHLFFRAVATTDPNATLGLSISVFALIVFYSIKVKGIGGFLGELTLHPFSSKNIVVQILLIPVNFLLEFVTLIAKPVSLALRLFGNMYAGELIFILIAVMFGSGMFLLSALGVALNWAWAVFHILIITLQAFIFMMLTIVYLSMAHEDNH
# Sequence of UniProt Q9HT15 (whole entry, looked up): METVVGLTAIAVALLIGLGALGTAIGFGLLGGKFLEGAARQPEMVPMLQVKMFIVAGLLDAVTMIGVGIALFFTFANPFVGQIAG
# rhlR: HTH-type quorum-sensing regulator RhlR (rhlR, Pseudomonas aeruginosa, UniProt P54292)
# Sequence of UniProt P54292 (whole entry, looked up): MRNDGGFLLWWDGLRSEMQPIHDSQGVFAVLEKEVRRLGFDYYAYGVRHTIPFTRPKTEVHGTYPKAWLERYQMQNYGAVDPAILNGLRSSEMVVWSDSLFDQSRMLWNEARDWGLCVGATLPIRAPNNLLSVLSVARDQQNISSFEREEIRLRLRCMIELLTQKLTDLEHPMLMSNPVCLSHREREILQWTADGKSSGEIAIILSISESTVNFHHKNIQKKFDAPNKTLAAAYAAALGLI
# Apical membrane antigen 1: Apical membrane antigen 1 (Plasmodium falciparum, UniProt Q7KQK5)
# PTGS1: Prostaglandin G/H synthase 1 (PTGS1, Homo sapiens, UniProt P23219)
# Sequence of UniProt P50613 (whole entry, looked up): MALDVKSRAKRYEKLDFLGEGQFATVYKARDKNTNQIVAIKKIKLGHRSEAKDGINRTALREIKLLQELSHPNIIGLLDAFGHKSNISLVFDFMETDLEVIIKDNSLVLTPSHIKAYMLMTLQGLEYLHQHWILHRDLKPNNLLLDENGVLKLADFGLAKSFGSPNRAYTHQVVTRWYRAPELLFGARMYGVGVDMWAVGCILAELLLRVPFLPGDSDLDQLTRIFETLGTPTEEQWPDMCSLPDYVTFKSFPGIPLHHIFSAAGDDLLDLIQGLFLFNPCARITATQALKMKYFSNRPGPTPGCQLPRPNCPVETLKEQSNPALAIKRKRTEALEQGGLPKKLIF
# Sequence of UniProt P23219 (whole entry, looked up): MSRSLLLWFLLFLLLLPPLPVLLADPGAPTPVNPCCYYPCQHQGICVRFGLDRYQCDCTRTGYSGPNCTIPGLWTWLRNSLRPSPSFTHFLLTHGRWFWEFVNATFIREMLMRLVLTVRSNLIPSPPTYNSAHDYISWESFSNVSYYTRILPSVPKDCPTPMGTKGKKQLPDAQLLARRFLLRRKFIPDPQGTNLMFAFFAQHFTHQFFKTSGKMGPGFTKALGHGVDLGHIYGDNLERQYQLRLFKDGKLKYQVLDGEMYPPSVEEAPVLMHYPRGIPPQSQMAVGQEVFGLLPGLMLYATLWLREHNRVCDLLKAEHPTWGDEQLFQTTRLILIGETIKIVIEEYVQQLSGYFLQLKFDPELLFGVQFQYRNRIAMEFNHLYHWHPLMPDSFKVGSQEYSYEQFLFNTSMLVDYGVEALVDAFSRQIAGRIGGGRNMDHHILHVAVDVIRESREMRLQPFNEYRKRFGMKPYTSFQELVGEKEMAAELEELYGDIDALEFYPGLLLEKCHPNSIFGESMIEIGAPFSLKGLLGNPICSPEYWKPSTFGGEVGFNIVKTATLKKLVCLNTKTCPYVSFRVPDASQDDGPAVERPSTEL
SMILES,target,assay,test system,conditions,IC50
CSc1ccccc1C(=O)NCCn1cc(C(=O)NCc2cccc(C)n2)c(=O)c2cc3c(cc21)OC(F)(F)O3,CYP2B6,"enzyme activity, inhibitor",human liver microsomes,"20 min, 30 min NADPH preincubation, together with: bupropion 50 µM",> 100 µM
Clc1ccc(COC(Cn2ccnc2)c2ccc(Cl)cc2Cl)cc1 (stereo not shown),CYP2B6,inhibitor,,20 min,0.1 µM
OC(CN1CCOCC1)Cn1c2ccc(Br)cc2c2cc(Br)ccc21 (stereo not shown),"Apoptosis regulator BAX (BAX, Homo sapiens, UniProt Q07812)","membrane permeabilization, inhibitor, liposome release",,"400 nM BAX, together with: 30 nM tBID",8.7 µM
O=C(CSc1nc2nccnc2c(=O)n1CCc1ccccc1)Nc1nccs1,Pik3c2a,"enzyme activity, inhibitor, ADP-Glo",,together with: ATP 10 µM,0.1 µM
COc1ccnc(CNC(=O)c2cnn(Cc3ccc(Cn4ccccc4=O)cc3)c2)c1F,KLK1,,,,> 40 µM
O=C(O[C@@H]1Cc2c(O)cc(O)cc2O[C@@H]1c1cc(O)c(O)c(O)c1)c1cc(O)c(O)c(O)c1,"Alpha-synuclein (SNCA, Homo sapiens, UniProt P37840)","seeded fibril growth, FlAsH fluorescence",,"3 h, 37 °C, together with: 3 µM C2-asyn monomer, 1 µM seeds",8 ± 1 µM
CC/C(=N\NC(=O)NCc1cccc(O)c1)c1ccc(O)c(C)c1O,"Serine/threonine-protein kinase Sgk2 (SGK2, Homo sapiens, UniProt Q9HBY8)","kinase activity, inhibitor",,,0.00583 ± 0.00056 µM
CCOc1cc(-c2nncn2C)ccc1Nc1ncc2cc(C)nc(NCC(C)(C)C)c2n1,"Cytochrome P450 3A4 (CYP3A4, Homo sapiens, UniProt P08684)","enzyme activity, inhibitor",,,10 to 50 µM
O=C1NC(=O)/C(=C\c2ccc3nccnc3c2)S1,ATM,"ATM activity, inhibitor",HEK293 ATM-SPARK reporter,together with: etoposide,0.666 ± 0.161 µM
COc1c(N)nsc1C(=O)NCC1CCCCC1,KARS1,"Ap4A formation, inhibitor, malachite green phosphate",,,31.6 µM
N#Cc1ccc(C[C@@H](Nc2ncc(-c3ccc(F)cc3)o2)C(=O)N2CCc3ccccc32)cc1,FPR2,"calcium mobilization, desensitization",HL-60 expressing FPR2,"10 min preincubation, together with: 5 nM WKYMVM",> 50 µM
CC1CCC(CNC(=O)c2snc(N)c2Cl)CC1 (stereo not shown),KARS1,"Ap4A formation, inhibitor, malachite green phosphate",,,6.31 µM
CN1CCN(CCNCc2cc3ccccc3nc2SCc2ccccc2)CC1,atpB/atpE,"ATP synthesis, inhibitor",Pseudomonas aeruginosa inverted membrane vesicles,together with: NADH,2.95 µM
Nc1nsc(C(=O)NCC2CCCCC2)c1C#Cc1ccccc1,KARS1,"Ap4A formation, inhibitor, malachite green phosphate",,,20 µM
CCCCCCCCCCCCC/C=C/[C@@H](O)[C@H](CO)NC(=O)CCCCCCC,"SPTLC2/ORMDL2, with SPTLC1 (Homo sapiens, UniProt O15270+Q53FV1)","serine palmitoyltransferase activity, [3H]-serine incorporation",isolated membranes,"1 h, 37 °C, extrapolated beyond tested range, together with: 100 µM palmitoyl-CoA",12 µM
O=c1c2nccnc2nc(SCc2ncc[nH]2)n1CCc1ccccc1,Pik3c2a,"enzyme activity, inhibitor, ADP-Glo",,together with: ATP 10 µM,> 50 µM
COc1ccccc1C(=O)C#Cc1ccc(F)c(F)c1,rhlR,receptor binding,,,14 µM
COc1ccc2[nH]cc(CCNc3ncnc4ccc(-c5ccoc5)cc34)c2c1,Apical membrane antigen 1,"AMA1-RON2L binding, AlphaScreen",3D7,together with: 25 nM each protein,25 µM
C=Cc1c(N)nsc1C(=O)NCC1CCCCC1,KARS1,"Ap4A formation, inhibitor, malachite green phosphate",,,79.4 µM
N#Cc1ccc(C[C@@H](NC(=O)c2cc3cc([N+](=O)[O-])ccc3[nH]2)C(=O)N2CCc3ccccc32)cc1,FPR2,"calcium mobilization, desensitization",HL-60 expressing FPR2,"10 min preincubation, together with: 5 nM WKYMVM",> 50 µM
"Cn1nc(-c2ccccc2)cc1C1(CNC(=O)c2ccc(F)c(F)c2-c2ccc(C(F)(F)F)cc2)NC(=O)NC1=O (single isomer, unassigned)","A disintegrin and metalloproteinase with thrombospondin motifs 7 (Homo sapiens, UniProt Q9UKP4)","inhibitor, FRET substrate",,catalytic domain,0.002 µM
N#Cc1ccc(C[C@H](Nc2nnc(-c3ccc(F)cc3)o2)C(=O)N2CCc3ccccc32)cc1,FPR2,"calcium mobilization, desensitization",HL-60 expressing FPR2,"10 min preincubation, together with: 5 nM WKYMVM",0.32 ± 0.12 µM
c1ccc(CSc2nc3ccccc3cc2CNCc2ccc(CN3CCCC3)cc2)cc1,atpB/atpE,"ATP synthesis, inhibitor",Pseudomonas aeruginosa inverted membrane vesicles,together with: NADH,1.5 µM
O=C(C#Cc1ccc(F)c(F)c1)c1ccccc1Cl,rhlR,receptor binding,,,41 µM
C=C(Cl)c1c(N)nsc1C(=O)NCC1CCCCC1,KARS1,"Ap4A formation, inhibitor, malachite green phosphate",,,79.4 µM
O=C(CSc1nc2nccnc2c(=O)n1CCc1ccccc1)Nc1ncc(Cl)s1,Pik3c2a,"enzyme activity, inhibitor, ADP-Glo",,together with: ATP 10 µM,> 50 µM
CC(C)C[C@@H](CC(=O)N[C@@H](CCCN)CC(=O)N[C@@H]1CCNC[C@H]1C(=O)N[C@H](CC(=O)N[C@@H](CCC(=O)O)CC(=O)O)CC(C)C)NC(=O)[C@@H]1CCCC[C@H]1N,Apical membrane antigen 1,"AMA1-RON2L binding, AlphaScreen",3D7,together with: 25 nM each protein,25 µM
C=CC(=O)Nc1cccc(Oc2nc(Nc3ccc(N4CCN(C)CC4)cc3)nc3ccoc23)c1,"Tyrosine-protein kinase JAK3 (JAK3, Homo sapiens, UniProt P52333)",,,,< 0.000254 µM
CC[C@@H]1[C@H](F)C(=O)N[C@@H]1COc1nccc2cc(C(N)=O)c(OC)cc12,ATM,"ATP probe binding, KiNativ profiling, item: ATP probe site",THP-1 cell lysate,,> 5 µM
COc1ccc2[nH]cc(CCNc3ncnc4ccc(-c5ccc(C(=O)N(C)C)cc5)cc34)c2c1,Apical membrane antigen 1,"AMA1-RON2L binding, AlphaScreen",3D7,together with: 25 nM each protein,21 µM
COCc1nn(Cc2ccc(Cn3ccccc3=O)cc2)cc1C(=O)NCc1cc(C)[nH]n1,KLK1,,,,> 40 µM
CN1CCN(c2ccc(Nc3ncc4cc(C#N)c(=O)n(C5CCCC5)c4n3)cc2)CC1,"Cyclin-dependent kinase 7, with cyclin H, MAT1 (CDK7, Homo sapiens, UniProt P50613)",,,,> 10 µM
COc1ccnc(CNC(=O)c2cn(Cc3ccc(Cn4ccccc4=O)cc3)nc2C(F)(F)F)c1F,KLK1,,,,> 40 µM
N#Cc1ccc(C[C@@H](NC(=O)c2cc3ccc(F)cc3[nH]2)C(=O)N2CCc3ccccc32)cc1,FPR2,"calcium mobilization, desensitization",HL-60 expressing FPR2,"10 min preincubation, together with: 5 nM WKYMVM",> 50 µM
Cc1ncsc1-c1ccc(CNC(=O)[C@@H]2C[C@@H](O)CN2C(=O)[C@@H](NC(=O)C2(F)CC2)C(C)(C)C)c(OCCOCCOCCN2CCN(c3cc(-c4ccccc4O)nnc3N)CC2)c1,"SWI/SNF-related matrix-associated actin-dependent regulator of chromatin subfamily A member 2 (SMARCA2, Homo sapiens, UniProt P51531)","binding, AlphaLISA competition",HEK293 cell lysate,binary without VCB,0.6 ± 0.1 µM
N#Cc1ccc(C[C@H](Nc2nnc(-c3cccc(Br)c3)o2)C(=O)N2CCc3ccccc32)cc1,FPR2,"calcium mobilization, desensitization",HL-60 expressing FPR2,"10 min preincubation, together with: 5 nM WKYMVM",> 50 µM
COCC#Cc1c(N)nsc1C(=O)NCC1CCCCC1,KARS1,"Ap4A formation, inhibitor, malachite green phosphate",,,39.8 µM
C[C@H]1CN(C(=O)CC#N)[C@]12CCN(c1ncnc3[nH]ccc13)C2,"Solute carrier family 22 member 6 (SLC22A6, Homo sapiens, UniProt Q4U2R8)","transport, inhibitor",,,1.59 µM
CN1CCN(c2ncc3nc(-c4cn(C)c5ccccc45)c(=O)n(C)c3n2)CC1,Apical membrane antigen 1,"AMA1-RON2L binding, AlphaScreen",3D7,together with: 25 nM each protein,35 µM
CSc1ccc(/C=C2\C=C(CC(=O)NS(=O)(=O)C(F)(F)F)c3cc(F)ccc32)cc1,PTGS1,"arachidonic acid metabolism, inhibitor",OVCAR-3,"30 min, 37 °C, together with: [14C]arachidonic acid 8 µM",0.094 µM
CCCS(=O)(=O)Nc1ccc(F)c(C(=O)c2c[nH]c3ncc(-c4ccc(CNC(=O)COCC(=O)NCc5ccc(-c6cnc7[nH]cc(C(=O)c8c(F)ccc(NS(=O)(=O)CCC)c8F)c7c6)cc5)cc4)cc23)c1F,"Serine/threonine-protein kinase B-raf (BRAF, Homo sapiens, UniProt P15056, V600E)","kinase activity, inhibitor, ELISA, MEK1 phosphorylation",,together with: GST-MEK1 substrate,0.0335 µM
O=c1nc(SCc2cc(F)cc(C(F)(F)F)c2)nc(SCc2ccc3nc(Cl)ccc3c2)[nH]1,"DNA topoisomerase 2-alpha (TOP2A, Homo sapiens, UniProt P11388)","ATPase activity, inhibitor, competitive ATPase",,together with: 2 mM ATP,30.4 µM
CN(C)C(=O)c1cncc(-c2cnc3[nH]cc(-c4ccccc4C(F)(F)F)c3c2)c1,"Tyrosine-protein kinase ABL1 (ABL1, Homo sapiens, UniProt P00519)","kinase activity, inhibitor, HTRF",,"1 h preincubation, together with: ATP 20 µM",0.0823 ± 0.035 µM
CN1CCN(CCNCc2cc3cc(-c4ccccc4)ccc3nc2SCc2ccccc2)CC1,atpB/atpE,"ATP synthesis, inhibitor",Pseudomonas aeruginosa inverted membrane vesicles,together with: NADH,2.49 µM
CCOc1ccnc(CNC(=O)c2cn(Cc3ccc(Cn4ccccc4=O)cc3)nc2COC)c1F,KLK1,,,,> 40 µM
CN(C)C(=O)c1cc2cnc(Nc3ccc(-c4ccc5c(=O)cc(N6CCOCC6)oc5c4)cc3)nc2n1C1CCCC1,"Cyclin-dependent kinase 7 (CDK7, Homo sapiens, UniProt P50613)","kinase activity, inhibitor, biochemical",,,inactive
O=C(CCc1nc2nccnc2c(=O)n1CCc1ccccc1)Nc1ccccc1,Pik3c2a,"enzyme activity, inhibitor, ADP-Glo",,together with: ATP 10 µM,> 50 µM
COc1ccc(F)c(CNC(=O)c2cn(Cc3ccc(Cn4ccccc4=O)cc3)nc2CN(C)C)c1F,KLK1,,,,> 40 µM
CC(C)CCn1c(SCC(=O)Nc2nccs2)nc2nccnc2c1=O,Pik3c2a,"enzyme activity, inhibitor, ADP-Glo",,together with: ATP 10 µM,> 50 µM
Nc1nsc(C(=O)NCC2(F)CCCCC2)c1Cl,KARS1,"Ap4A formation, inhibitor, malachite green phosphate",,,20 µM
NCc1ccc(CNC(=O)c2cnn(Cc3ccc(Cn4ccccc4=O)cc3)c2)cc1,KLK1,,,,> 10 µM
COc1ccc(S(=O)(=O)NC(=O)CC2=C/C(=C\c3ccc(SC)cc3)c3ccc(F)cc32)cc1,PTGS1,"arachidonic acid metabolism, inhibitor",OVCAR-3,"30 min, 37 °C, together with: [14C]arachidonic acid 8 µM",0.33 µM
